Published values gathered from unrelated publications.
Parts stem from different laboratories: compare values within a part only.

Study 1 — method: protein binding microarray; molecule type: double-stranded DNA, one strand shown; matrix: in vitro; concentration: not given; reference: not given; reading: higher = stronger binding
Target: Histone acetyltransferase KAT6A, both winged helices, GST fusion (KAT6A, Homo sapiens, UniProt Q92794, residues 1-181)
Notes: 8-mer, flanks averaged, mean of 2 arrays, mostly near background
Residues (chain): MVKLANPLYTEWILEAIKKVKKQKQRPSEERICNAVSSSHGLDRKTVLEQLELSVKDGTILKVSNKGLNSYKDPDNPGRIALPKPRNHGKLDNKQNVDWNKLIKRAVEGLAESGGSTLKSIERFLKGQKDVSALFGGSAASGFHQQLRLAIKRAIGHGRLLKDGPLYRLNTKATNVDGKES
Sequence	E-score
AGCCACGG	0.186
GCTACAAC	0.00566
AAAGTAAC	-0.133
AGCTTCAT	0.115
ACCACAGC	-0.0151
AGCGGAGC	0.12
ACAGAGTA	-0.065
GATAGCCC	-0.124
ACTCCTGA	-0.14
CAAGAGCC	-0.0549
ACCTGAAC	-0.16
ACTAATGG	-0.165
AGAATGCT	-0.193
AATCTCCC	-0.0959
AAATGCTT	-0.0962
GGGTAACC	0.0122
ACGTCCCG	0.153
ACATCAGT	-0.0544
ATGCTAGA	-0.171
AAAAGTCT	-0.19
AGGACAAC	-0.193
GGGCGACC	-0.0178

Study 2 — method: RNA Bind-n-Seq; molecule type: RNA; matrix: in vitro; concentration: not given; reference: input RNA pool; reading: higher = stronger binding
Target: RING finger protein unkempt homolog, zinc fingers 1-6, GST-SBP tag (UNK, Homo sapiens, UniProt Q9C0B0, residues 30-357)
UniProt Q9C0B0, sequence (30-357, looked up): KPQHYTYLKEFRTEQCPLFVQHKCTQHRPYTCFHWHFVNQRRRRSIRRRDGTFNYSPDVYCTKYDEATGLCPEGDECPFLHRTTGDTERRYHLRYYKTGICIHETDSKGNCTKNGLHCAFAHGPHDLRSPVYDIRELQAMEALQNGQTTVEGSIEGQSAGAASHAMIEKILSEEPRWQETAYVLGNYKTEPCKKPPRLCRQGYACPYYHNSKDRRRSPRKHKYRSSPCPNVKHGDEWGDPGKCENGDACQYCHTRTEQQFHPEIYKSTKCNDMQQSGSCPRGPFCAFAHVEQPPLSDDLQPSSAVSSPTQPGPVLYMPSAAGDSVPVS
Notes: RNA with constant flanks, human and mouse sites, ends assumed
Shared flanks, not repeated: GGGAGUUCUACAGUCCGACGAUC … CAACAGAGGAUUGAGCAUCA
Sequence	bound/input enrichment [ratio]
ACCUCCUCGUCCAGCAGCAGCGGCAGCAGCAGCGGCAGCAGCGGCGAGGACGCCGACGACCUGAUGUUCGACCUGAGCUUGAAUUUCUCUCAAAGCGCGCACAGCGCCAGCGAGCAGCAG	0.118
GGAGGAGAGGACAAAUUAAAGAUGAUUCGGGAGUACCGGCAAAUGGUUGAAACUGAGCUCAAGUUAAUCUGUUGUGACAUUCUGGAUGUACUGGACAAACACCUCAUUCCAGCAGCUAAC	0.696
UUCAGGAUGCUGGUGUCACGUUUUGCCAGUCGGUUUCGGAAAGACUCGAGCACUGAGAUGGUUAGAACCAACUUGGCUCAUAGAAAGUCUCUGUCUCAGAAGGAGAACAGACACAGGGUG	0.164
UCCACGGGAUUUAACAAAUGUUCAAAGACAUAUAUGCAUCAUUACACUCCUAUAACACAAUAGUUUUACUGUCUUAAGAAUCAUGCGUAGCCAGGCAGUGGUGUACACCUUUAAUCCCAG	1.13
UUCUUUCCCUUUUUCUUUCAGAGCUGUUGCGCAGCCAUUGGUACCUGUAUUGGGGAAACAUAGCAUACAAGCAAGAAGCUUACAGCCUCAGUGGCGAAAAUUUUUUCAUGUCAGAGACCG	0.423
AUGAGAGUCUCGGUGAGCUCCAAAGGGAGCAUCAGCACUCCAAAUUCUCCAGUGAAAAUGACUCUGAUUCCCAGCCCCAACUCACCCUUCCAAAAGGUGGGAAAACUAGCAAGCUCAGAU	0.284
GGACCGACUGUGUACGACCAUGCACAUCUUGGCCAUGCUUGCUCCUAUGUUAGAUUUGACAUUAUCCGGAGGAUCCUGACCAGAGUGUUUGGAUGCAAUGUGGUCAUGGCGAUGAGCAUU	0.156
GACAUGAUAACUAAAUUUGAAGAUUCUGAGGAAAUUUCUUCAUCAACUUAUUUUCCAGGCAGCAUUAUAGACUAUCCAGAAGAAAUAAGUGUAUCUUUAGAUCGGACUGCCCCACCAGAU	0.219

Study 3 — method: RNA Bind-n-Seq; molecule type: RNA; matrix: in vitro; concentration: 365 nM; reference: no-protein control; reading: higher = stronger binding
Target: RNA binding protein fox-1 homolog 2, RRM domain, GST-SBP tag (RBFOX2, Homo sapiens, UniProt O43251-10, residues 100-194)
Notes: natural RNA segment, single round, ends assumed
Shared flanks, not repeated: GGGAGUUCUACAGUCCGACGAUC … UGGAAUUCUCGGGUGCCAA
Residues (chain): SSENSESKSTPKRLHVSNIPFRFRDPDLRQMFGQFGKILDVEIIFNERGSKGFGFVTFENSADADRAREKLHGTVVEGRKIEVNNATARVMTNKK
Sequence	RBNS enrichment (R)
GCUGAUGUUCGGUCCUGGCAAACAUUGAGUUAUUUUGAGCUGUGAAGGCAGUCGUCUCUGUUACACAGUGGCAGCUCUUGAGUUAUGCACUGUGAAGAAUGAGAAGGGAA	0.402
CAGAGAAGGAGGUGGGGGCUGUGAAUUGGUUGUUAGUUUCUGAAUUUUACCAAAUAAAGUAGAAUCUAAGAAGAAACUCUUAUUGGUCUCUGCUUUUCUCCUCUGCCCAC	0.349
UGGCCUGCAACUGGAGACUGCUAAGCCCUGACGUCUGGUGCCGAGGUCGUCUGCAGGGUUUUGCCCUUGGUUUACUGAGGGGGGCUGAGCUGCUGCUGGUCCCCCCUUCU	1.74
UCAAAGGUAACAUGCAACUUAGUUCUGUUAUAUGAGAGUCUUUUUCUUUAAUGUACUGGAAAAAGCCUAUGUGAAUCUGUUGAUAGAAUUUAAAAUUCCAGGCCGGGCGU	0.532
UCCUCUGUAGCUUGAGCUACCCCUCCCCUGCUGUAACUUACGUGACCUGUGCUGUCACUGGGCAUAGGACAGCGGCAUCACGGUUGCAUUCCCAUUGGACUCAUGCACCU	0.554
AUAUUGAAGUCCAGGGAGGGAGCGCCCCGGGCCGCGUCCGCCCCGUCCCACACUACGCCCCCGCCCCACUCCCGGGGCCUGCUAAUCUGAGGCCGAUCCGGGACCGGCCU	0.278
AGUUGAUAGAAUUCAAAAAGGCCAUCUUUUUGCUUUCACAUCAAUAAAAUUUACCAAGUAAUAGAUCAGUACUCACUAAUAUUUUUGAGACCAUAGUUGUCUGGUCAGAA	0.301
UCUCGUAUUGGCAGAUCUUGACAGGCUGGACCUGCAAGAUGUGGCUUGAAUUUUAACCAUUUAUUACAUAAUCUCUAGUGAUCAUGCAUCUAGUUAUCAUAAGAAAUAAU	0.278

Study 4 — method: RNA Bind-n-Seq; molecule type: RNA; matrix: in vitro; concentration: 1 µM; notes: whole 134-nt RNA, ends assumed; together with: 150 mM KCl; reference: input library; reading: higher = stronger binding
Target: Ras GTPase-activating protein-binding protein 1, C-terminal RGG region (G3BP1, Homo sapiens, UniProt Q13283)
UniProt Q13283, sequence (whole entry, looked up): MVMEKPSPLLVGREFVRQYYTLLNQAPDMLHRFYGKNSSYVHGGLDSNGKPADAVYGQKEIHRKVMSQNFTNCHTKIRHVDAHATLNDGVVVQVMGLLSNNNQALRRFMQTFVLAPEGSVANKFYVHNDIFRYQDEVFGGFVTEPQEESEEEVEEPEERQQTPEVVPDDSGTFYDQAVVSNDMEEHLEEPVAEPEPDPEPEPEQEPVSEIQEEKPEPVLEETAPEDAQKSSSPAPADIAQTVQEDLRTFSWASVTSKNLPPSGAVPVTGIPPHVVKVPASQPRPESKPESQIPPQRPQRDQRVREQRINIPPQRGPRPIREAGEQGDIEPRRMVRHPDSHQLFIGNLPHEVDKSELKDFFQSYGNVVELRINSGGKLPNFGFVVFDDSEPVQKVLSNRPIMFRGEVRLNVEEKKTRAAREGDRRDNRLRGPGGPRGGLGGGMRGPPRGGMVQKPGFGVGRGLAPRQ
Shared flanks, not repeated: GGGAGUUCUACAGUCCGACGAUC … UGGAAUUCUCGGGUGUCAAGG
Sequence	log2 enrichment
GCAGGAAGUAAAAACAAAUGGAAAUGCUUCGGAUAGUAAAAGGGGUGGGGGUUGCUAAGGAAAGGGUGGGAUGGGAGUGGGUAAAGAGUU	2.23
GCAGGAAGUAAAAACAAAUGGAAAUGCUUCGGAUAGUGGCAGGGGUGGGGGUUGCUAAGGAAAGGGUGGGAUGAAAGUGGGUAAAGAGUU	1.82
UCCUGUGCUACACAUCGUAUGUACCGAAUCGGGGAAAGGGGAAAAAAAGGGGUUUGGGGAAAGUAUUAUGUUACGCCGUUCGGAUCUGCA	1.7
CCUCAAGUCCUGUGCUACACAUCGUAUGUACCGAAUCGGUUGGUUGGGUUGGGAAAGUAUUAUGUUACGCCGUUCGGAUCUGCACUUCCA	-0.956
AAGUCCUGUGCUACACAUCGUAUGUACCGAAUCGGGGAAAAGGAAAAGGGGAAAAGGAAAGUAUUAUGUUACGCCGUUCGGAUCUGCACU	-1.34
CCUGUGCUACACAUCGUAUGUACCGAAUCGGGAAAAAAAGGGAAAAAAAGGAAAAAAAGGGAAAGUAUUAUGUUACGCCGUUCGGAUCUG	-1.89
ACCAUGCAGGUGGAAAUCUUUGGGAAGUGGGGCAAGGGGGGGAUAGGGAGGGGGGUAACACUUUGGGAACAGGUGGUCCCAGGUCGUUUC	-0.869
GUCCUGUGCUACACAUCGUAUGUACCGAAUCGGGGAAAAAGGGGAGGGGAAAAAGGGGAAAGUAUUAUGUUACGCCGUUCGGAUCUGCAC	1.11
ACCAUGCAGGUGGGCAUCUUUGGGAAGUGGGGCAAGGGGGGGAUAGGGAGGGGGGUAACACUUUGGGAACAGGUGGUCCCAGAUCGUUUC	1.62

Study 5 — method: universal PBM; molecule type: double-stranded DNA, one strand shown; matrix: in vitro; concentration: 600 nM; reading: higher = stronger binding
Target: Sal-like protein 4, full length isoform A (SALL4, Homo sapiens, UniProt Q9UJQ4, residues 1-1053)
UniProt Q9UJQ4, sequence (whole entry, looked up): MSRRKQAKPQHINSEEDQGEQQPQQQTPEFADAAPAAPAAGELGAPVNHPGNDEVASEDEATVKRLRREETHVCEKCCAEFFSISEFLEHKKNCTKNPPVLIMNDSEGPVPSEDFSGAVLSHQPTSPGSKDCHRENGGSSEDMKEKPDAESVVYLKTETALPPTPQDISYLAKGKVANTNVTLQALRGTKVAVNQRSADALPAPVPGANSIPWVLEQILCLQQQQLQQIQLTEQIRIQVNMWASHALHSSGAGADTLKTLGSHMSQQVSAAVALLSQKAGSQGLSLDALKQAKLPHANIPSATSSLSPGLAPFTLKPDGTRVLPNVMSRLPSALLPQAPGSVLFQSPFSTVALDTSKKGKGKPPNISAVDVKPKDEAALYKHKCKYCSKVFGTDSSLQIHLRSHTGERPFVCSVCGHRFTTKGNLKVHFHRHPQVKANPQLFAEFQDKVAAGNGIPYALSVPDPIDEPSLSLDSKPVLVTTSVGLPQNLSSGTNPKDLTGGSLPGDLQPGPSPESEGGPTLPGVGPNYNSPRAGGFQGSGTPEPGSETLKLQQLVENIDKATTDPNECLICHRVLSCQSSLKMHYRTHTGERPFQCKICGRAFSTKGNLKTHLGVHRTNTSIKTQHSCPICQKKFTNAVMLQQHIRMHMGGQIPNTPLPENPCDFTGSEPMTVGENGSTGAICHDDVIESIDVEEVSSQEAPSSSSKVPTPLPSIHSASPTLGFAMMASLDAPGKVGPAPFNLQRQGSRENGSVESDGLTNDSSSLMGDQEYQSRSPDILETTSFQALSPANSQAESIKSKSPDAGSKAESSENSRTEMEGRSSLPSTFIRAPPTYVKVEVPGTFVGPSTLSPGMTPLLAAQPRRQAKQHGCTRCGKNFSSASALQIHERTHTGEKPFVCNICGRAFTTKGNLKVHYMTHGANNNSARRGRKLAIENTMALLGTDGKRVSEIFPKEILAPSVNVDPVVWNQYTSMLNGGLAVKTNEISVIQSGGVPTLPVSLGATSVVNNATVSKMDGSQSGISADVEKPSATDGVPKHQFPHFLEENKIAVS
Notes: 8-mer, flanks averaged, mean of replicates
Sequence	E-score
ACCGCGGG	-0.38
TTGGACAA	0.0917
CTGTAGAA	0.153
ACCCGGGG	-0.403
AATCTTGG	-0.032
ACTACAGG	-0.000765
CGCAGTAG	-0.106
AGGGGATC	-0.103
CACGGTCG	-0.343
AATGTTCT	0.139
ATAACCAT	0.267
ACTATCGC	0.0354
TCCGAGAA	0.0442
ACAATGGA	0.117
CGCCACTA	-0.188
CCGTGCAA	-0.153
CAGTTGCC	-0.0915
AAGAGGGG	-0.113

Repeated from above (study 4):
Sequence	log2 enrichment
ACCAUGCAGGUGGAAAUCUUUGGGAAGUGGGGCAAGGGGGGGAUAGGGAGGGGGGUAACACUUUGGGAACAGGUGGUCCCAGGUCGUUUC	-0.869
GUCCUGUGCUACACAUCGUAUGUACCGAAUCGGGGAAAAAGGGGAGGGGAAAAAGGGGAAAGUAUUAUGUUACGCCGUUCGGAUCUGCAC	1.11
CCUCAAGUCCUGUGCUACACAUCGUAUGUACCGAAUCGGUUGGUUGGGUUGGGAAAGUAUUAUGUUACGCCGUUCGGAUCUGCACUUCCA	-0.956
GCAGGAAGUAAAAACAAAUGGAAAUGCUUCGGAUAGUGGCAGGGGUGGGGGUUGCUAAGGAAAGGGUGGGAUGAAAGUGGGUAAAGAGUU	1.82
GCAGGAAGUAAAAACAAAUGGAAAUGCUUCGGAUAGUAAAAGGGGUGGGGGUUGCUAAGGAAAGGGUGGGAUGGGAGUGGGUAAAGAGUU	2.23
UCCUGUGCUACACAUCGUAUGUACCGAAUCGGGGAAAGGGGAAAAAAAGGGGUUUGGGGAAAGUAUUAUGUUACGCCGUUCGGAUCUGCA	1.7
CCUGUGCUACACAUCGUAUGUACCGAAUCGGGAAAAAAAGGGAAAAAAAGGAAAAAAAGGGAAAGUAUUAUGUUACGCCGUUCGGAUCUG	-1.89
